Published values from different studies.
Protocols differ between the studies behind these lines.
Target: MAP/microtubule affinity-regulating kinase 4 (MARK4, Homo sapiens, UniProt Q96L34)

SMILES | assay | system | conditions | scale | measurement | value
COc1ccc(O)cc1-c1c[nH]c2ncc(-c3cncc(C(=O)N(C)C)c3)cc12 | binding, competition with immobilised ligand | – | 0.2 µM | – | inhibition | 72.1%
CNC1C[S+]2CC[S+]3CC[S+](C1)[Ru-4]321([N]=C=S)[n]2c3ccc(OC)cc3c3c4c(c5cc(F)c[n+]1c5c32)C(=O)NC4=O (centres unmarked) | KinomeScan | – | 0.1 µM | relative to: untreated | remaining binding | 71%
O=C(Cc1ccc(OCc2ccccc2)cc1)NC1(C(=O)O)CCN(C(=O)c2ccc(-c3cccc(Cl)c3)cc2)CC1 | enzyme activity, inhibitor | – | 10 µM | – | activity vs control | 92%
Cc1cccc(O[C@H]2CCC[C@@H](C(C)CNCc3ccncc3)C2)c1 (relative stereo) | kinase activity, kinome panel screening | – | 1 µM | – | inhibition | -1%
COc1c(Cl)cccc1Nc1c(-c2ccncc2C#C[C@@]2(C)CCCN2C(=O)/C=C/CN(C)C)[nH]c2c1C(=O)NCC2 | binding, competition with immobilised ligand | – | 3 µM | – | remaining binding | 97%
CCn1cc(C(=O)O)c(=O)c2c(N)c(F)c(NC3CCCCC3)cc21 | kinase activity | – | 0.1 µM, together with: ATP at Km | – | inhibition | -4%
NC(=O)C[C@H]1CCc2sc3ncnc(O[C@H]4CC[C@H](N5CCOCC5)CC4)c3c21 | enzyme activity, inhibitor | – | 10 µM | – | inhibition | 3%
Cc1cnc2nc1Nc1cccc(c1)COC/C=C/COCc1cc(ccc1OCCN1CCOCC1)N2 | – | – | concentration not given | – | percent of control | 100%
CS(=O)(=O)Nc1cccc(-c2csc3cnc(Nc4ccc(N5CCN(CCCCCOc6cccc7c6C(=O)N(C6CCC(=O)NC6=O)C7=O)CC5)cc4)nc23)c1 (centres unmarked) | probe labelling, inhibitor, KiNativ chemoproteomics | MOLT-4 | 1 µM | – | inhibition | -3.48%
C=CC(=O)N1Cc2nc(-c3cc(-c4cc(Cl)cnc4Cl)c(F)cc3F)n(-c3ccncn3)c2C1 | cell-free assay, inhibitor | – | 1 µM | – | inhibition | 9.9%
Cc1ccc(-c2c(/C=C(\C#N)C(=O)NC(C)C)n(CCCO)c3ncnc(N)c23)cc1 | cell-free assay, competition with immobilised ligand | – | 1 µM | – | remaining binding | 82%
COc1cc(Nc2nc(C)cc(-c3cnn4nc(OC)ccc34)n2)cc(C(F)(F)F)c1 | inhibitor | – | 1 µM | relative to: control | remaining activity | 100%
CN1CC[C@@H](COc2cnc(C#N)cc2-c2ccn3nc(NC(=O)C4CC4)cc3c2)C1 | enzyme activity, inhibitor | – | 1 µM | – | inhibition | 8%
C=CC(=O)Nc1cccc(-c2cnc3[nH]cc(C(=O)NC(C)(C)C)c3n2)c1 | enzyme activity, inhibitor | – | 0.1 µM | – | inhibition | 54%
